Assay results from different studies.
pIC50: −log10 of the molar value.
Cell line: DU-145

C=C1C(=O)OC2C1CCC1(C)CC1CCC1(C)OC21 (stereo not shown) — pIC50 (cell growth or viability, resazurin): 4.83
COC(=O)[C@H](C(C)C)N(C)C(=O)[C@@H]1CCCN1C(=O)[C@H](C)N(C)C(=O)OC(C)(C)C — pIC50 (cell growth or viability, SRB): 5.52
Brc1ccc(C(c2c[nH]c3ccccc23)c2c[nH]c3ccccc23)cc1 — pIC50 (cell growth or viability, MTT; 24 h): 5.02
NS(=O)(=O)c1ccc(/N=N/c2ccc(O)nc2O)cc1 — pIC50 (cell growth or viability, resazurin; 72 h): ~3.50
O=C1c2cccc[c]2[Au-]([Cl])([Cl])[N+]1=P(c1ccccc1)(c1ccccc1)c1ccccc1 — pIC50 (cell growth or viability, MTT; 24 h): 4.40
COC(=O)[C@@H]1CCCN1C(=O)[C@H](C)N(C)C(=O)OC(C)(C)C — pIC50 (cell growth or viability, SRB): 5.10
CN(C)C(=S)[S][Pd][c]1ccccc1C(=O)N=P12CN3CN(CN(C3)C1)C2 — pIC50 (cell growth or viability, MTT; 24 h): 3.87
O=C(N=P12CN3CN(CN(C3)C1)C2)c1cccc[c]1[Au]([Cl])[Cl] — pIC50 (cell growth or viability, MTT; 24 h): < 3.90
Cl.[Cl][Ru-4]123([n+]4ccccc4-c4cccc([n+]41)-c1cccc[n+]12)[n+]1ccc(-c2ccccc2)c2ccc4c(-c5ccccc5)cc[n+]3c4c21 — pIC50 (cell growth or viability; 72 h, 3D culture): 4.56
O=C1c2ccc(O)cc2OC1(O)Cc1ccc(O)c(O)c1 (stereo not shown) — pIC50 (cell growth or viability, MTT; 72 h): < 3.40
COC(=O)C[C@H]1Oc2ccccc2C(=O)[C@]1(C)[N+](=O)[O-] — pIC50 (cell growth or viability, SRB; 96 h): < 4.30
O=C([O][Ti+2][O]C(=O)c1ccc([P+]([Au-][Cl])(c2ccccc2)c2ccccc2)cc1)c1ccc([P+]([Au-][Cl])(c2ccccc2)c2ccccc2)cc1.c1cc[cH-]c1.c1cc[cH-]c1 — pIC50 (cell viability, XTT; 72 h): 5.18
Cc1ccc(C(C)C)cc1.[Cl-].[Cl-].[Fe+2].[Ru+2].c1cc[cH-]c1.c1ccc(P(=NCc2ccccn2)(c2ccccc2)[c-]2cccc2)cc1 — pIC50 (cell growth or viability, MTT; 24 h): 3.83
O=C(NCCc1ccccc1)c1ccccc1-n1c(=O)[nH]c2ccccc2c1=O — pIC50 (cell growth or viability, MTT; 24 h): 4.96
COc1ccc(C(c2c[nH]c3ccc(Br)cc23)c2c[nH]c3ccc(Br)cc23)cc1 — pIC50 (cell growth or viability, MTT; 24 h): 5.25
O=C(Nc1ccccc1)c1ccccc1-n1c(=O)[nH]c2ccc(F)cc2c1=O — pIC50 (cell growth or viability, MTT; 24 h): 4.94
C[C@]1([N+](=O)[O-])C(=O)c2ccccc2O[C@@H]1CC(=O)Oc1ccccc1 — pIC50 (cell growth or viability, SRB; 96 h): < 4.30
O=C(N=P12CN3CN(CN(C3)C1)C2)c1cccc[c]1[Pd].O=C(N=P12CN3CN(CN(C3)C1)C2)c1cccc[c]1[Pd]([Br])[Br] — pIC50 (cell growth or viability, MTT; 24 h): 4.31
CC(=O)N[C@@H](CC(C)C)C(=O)N[C@@H](CC(C)C)C(=O)N[C@@H](CC(C)C)C(=O)N[C@@H](CC(C)C)C(=O)N[C@@H](CCCNC(=N)N)C(=O)N[C@H](C(=O)N[C@@H](CCCCN)C(=O)N[C@@H](CCCNC(=N)N)C(N)=O)C(C)C — pIC50 (cell growth or viability, MTT; 72 h): 4.00 to 4.10
COc1ccc(C(c2c[nH]c3ccccc23)c2c[nH]c3ccccc23)cc1 — pIC50 (cell growth or viability, MTT; 24 h): 5.29
COC(=O)[C@H]1CC[C@H](NC(=O)C[C@H]2Oc3ccccc3C(=O)[C@]2(C)[N+](=O)[O-])CC1 — pIC50 (cell growth or viability, SRB; 96 h): 4.84
O=C(O)c1ccc([P+]([Au-][Cl])(c2ccccc2)c2ccccc2)cc1 — pIC50 (cell viability, XTT; 72 h): 4.41
COC(=O)[C@@H]1CCCN1C(=O)[C@H](Cc1ccccc1)NC(=O)OC(C)(C)C — pIC50 (cell growth or viability, SRB): 4.89
COc1ccc(OC)c(C(c2c[nH]c3ccccc23)c2c[nH]c3ccccc23)c1 — pIC50 (cell growth or viability, MTT; 24 h): 4.77
COc1cc(C(=O)NC2CCC(N3CCN(CC4CCC5(CCCC5)C4)CC3)CC2)c(F)cc1Nc1ncc2c(n1)N(C1CCCC1(F)F)CC(F)(F)C(=O)N2C (stereo not shown) — pIC50 (cell growth or viability, MTT; 72 h): 10.05
C[C@]1([N+](=O)[O-])C(=O)c2ccccc2O[C@@H]1CC(=O)O — pIC50 (cell growth or viability, SRB; 96 h): < 4.30
Cc1ccc(C(C)C)cc1.O=C(N=P(c1ccccc1)(c1ccccc1)c1ccccc1)c1[c-]cccc1.[Cl-].[Ru+2] — pIC50 (cell growth or viability, MTT; 24 h): 4.85
CCCCOC(=O)C[C@H]1Oc2ccccc2C(=O)[C@]1(C)[N+](=O)[O-] — pIC50 (cell growth or viability, SRB; 96 h): 4.68
COc1cc(C(=O)NC2CCC(N3CCN(C[C@H]4CC[C@](C)(C(F)(F)F)C4)CC3)CC2)c(F)cc1Nc1ncc2c(n1)N([C@H]1CCCC1(F)F)CC(F)(F)C(=O)N2C (stereo partly shown) — pIC50 (cell growth or viability, MTT; 72 h): 9.74
Cc1ccc(C(C)C)cc1.O=C(N=P(c1ccccc1)(c1ccccc1)c1ccccc1)c1ccccn1.[Cl-].[Cl-].[Ru+2] — pIC50 (cell growth or viability, MTT; 24 h): 5.81
N.N.[Cl][Pt+].c1ccc2c(c1)cnc1ccccc12 — pIC50 (cell growth or viability; 72 h, 3D culture): 6.08

Some of these lines once more:
Brc1ccc(C(c2c[nH]c3ccccc23)c2c[nH]c3ccccc23)cc1 — pIC50 (cell growth or viability, MTT; 24 h): 5.02
COc1ccc(OC)c(C(c2c[nH]c3ccccc23)c2c[nH]c3ccccc23)c1 — pIC50 (cell growth or viability, MTT; 24 h): 4.77
